Experimental data of several laboratories.
Compare with care: the assays were run in different laboratories. ± gives the spread as reported.
Organism: Plasmodium falciparum

For `COc1ccc(-c2cn(C3CCCC3)c3ncnc(N)c23)cc1`, schizont rupture read “no effect” (FVO; invasion IC50).
For `C[OH+][Cu-2]12[O]C(c3cn(-c4ccccc4)nc3-c3ccc(Br)cc3)=N[N+]1=C(C)c1c(cc(C)oc1=O)[O]2` (centres unmarked), the parasitaemia was 23.6% (3D7; 12.5 µg/mL, 72 h).
`CC[C@H](C)[C@@H]1NC(=O)[C@H](CCCCN)NC(=O)[C@H](CCCCN)NC(=O)[C@H](Cc2ccc(O)cc2)NC(=O)[C@H](CC(C)C)NC(=O)[C@@H]2CCCN2C(=O)[C@H](C)NC(=O)CNC(=O)CNC(=O)[C@H](CO)NC(=O)CNC(=O)CNC(=O)[C@H](CO)NC(=O)[C@H](CCC(=O)O)NC(=O)[C@H](CC(C)C)NC(=O)[C@H](CC(C)C)NC(=O)[C@H](CCCCN)NC(=O)[C@H](CCCCN)NC(=O)[C@H]([C@@H](C)CC)NC(=O)[C@H]([C@@H](C)CC)NC(=O)[C@H](CCCCN)NC(=O)[C@H](CCCCN)NC(=O)[C@H](Cc2ccc(O)cc2)NC(=O)[C@H](CC(C)C)NC(=O)[C@@H]2CCCN2C(=O)[C@H](C)NC(=O)CNC(=O)[C@@H]2CSSC[C@H](NC(=O)[C@H](CC(C)C)NC(=O)[C@H](CCCCN)NC(=O)[C@H](CCCCN)NC(=O)[C@H]([C@@H](C)CC)NC1=O)C(=O)N[C@@H](CCC(=O)O)C(=O)N[C@@H](CO)C(=O)NCC(=O)N2` gave a selectivity index of 3.6 ± 0.4 (3D7; 5 mg/mL Albumax II; reference: RBC HC10 over P. falciparum IC50).
For `Cc1ccc(NCC(=O)N(C)c2ccc(F)c(Cl)c2)cc1S(=O)(=O)N1CCOCC1`, the EC50 was greater than 50 µM (parasite growth; 3D7; blood stage).
`COc1cc(O)c(-c2cc(-c3cc(-c4c(O)cc(OC)c5c4C[C@@H](C)N[C@@H]5C)c4cc(C)cc(OC)c4c3O)c(O)c3c(OC)cc(C)cc23)c2c1[C@@H](C)N[C@H](C)C2` gave an inhibition of greater than 70% (gametocyte viability, luciferase reporter; NF54-Pfs16-GFP-Luc, late stage IV/V; 5 µM, 48 h).
With `Cc1ccc(CNC(=O)[C@@H](NC(=O)[C@H](CCc2ccccc2)NC(=O)[C@@H](NC(=O)c2cnc(C)cn2)C(C)(C)C)C(C)C)cc1` the selectivity ratio was 45 (D10; 72 h; reference: HFF EC50 over P. falciparum EC50).
`CC1=CC(c2ccc[nH]2)=NC1=CNC12CC3CC(CC(C3)C1)C2` has an IC50 of 0.0013 µM (parasite growth, SYBR Green I fluorescence; D6, chloroquine-sensitive).
Under antiplasmodial activity, `Nc1ccc(C(=O)/C=C/c2ccccc2F)cc1` is recorded as “active” (concentration not given).
The parasitaemia of `C[OH+][Cu-2]12[O]C(c3cn(-c4ccccc4)nc3-c3ccc(Cl)cc3)=N[N+]1=C(C)c1c(cc(C)oc1=O)[O]2` (centres unmarked) is reported as 21.7% (3D7; 12.5 µg/mL, 72 h).
With `O=C(CNc1cccc(S(=O)(=O)N2CCOCC2)c1)Nc1ccc(F)c(Cl)c1` the EC50 was 11 µM (parasite growth; 3D7; blood stage).
`CN(C)Cc1cc(/C=C/C(=O)c2ccc(Cl)cc2)ccc1O` gave an EC50 ratio of roughly 1400 fold (pLDH; 3D7; reference: compound over chloroquine).

Repeated from above:
The parasitaemia of `C[OH+][Cu-2]12[O]C(c3cn(-c4ccccc4)nc3-c3ccc(Cl)cc3)=N[N+]1=C(C)c1c(cc(C)oc1=O)[O]2` (centres unmarked) is reported as 21.7% (3D7; 12.5 µg/mL, 72 h).
